Results of several laboratories.
Lines come from different studies, so protocols differ. ± gives the spread as reported.
nanI: Sialidase (nanI, Clostridium perfringens, UniProt A0A0H2YQR1)
Polyprotein P1234 nsP2 protease domain: Polyprotein P1234, nsP2 protease domain (Chikungunya virus, UniProt Q5XXP4)
UniProt Q5XXP4, sequence (whole entry, looked up): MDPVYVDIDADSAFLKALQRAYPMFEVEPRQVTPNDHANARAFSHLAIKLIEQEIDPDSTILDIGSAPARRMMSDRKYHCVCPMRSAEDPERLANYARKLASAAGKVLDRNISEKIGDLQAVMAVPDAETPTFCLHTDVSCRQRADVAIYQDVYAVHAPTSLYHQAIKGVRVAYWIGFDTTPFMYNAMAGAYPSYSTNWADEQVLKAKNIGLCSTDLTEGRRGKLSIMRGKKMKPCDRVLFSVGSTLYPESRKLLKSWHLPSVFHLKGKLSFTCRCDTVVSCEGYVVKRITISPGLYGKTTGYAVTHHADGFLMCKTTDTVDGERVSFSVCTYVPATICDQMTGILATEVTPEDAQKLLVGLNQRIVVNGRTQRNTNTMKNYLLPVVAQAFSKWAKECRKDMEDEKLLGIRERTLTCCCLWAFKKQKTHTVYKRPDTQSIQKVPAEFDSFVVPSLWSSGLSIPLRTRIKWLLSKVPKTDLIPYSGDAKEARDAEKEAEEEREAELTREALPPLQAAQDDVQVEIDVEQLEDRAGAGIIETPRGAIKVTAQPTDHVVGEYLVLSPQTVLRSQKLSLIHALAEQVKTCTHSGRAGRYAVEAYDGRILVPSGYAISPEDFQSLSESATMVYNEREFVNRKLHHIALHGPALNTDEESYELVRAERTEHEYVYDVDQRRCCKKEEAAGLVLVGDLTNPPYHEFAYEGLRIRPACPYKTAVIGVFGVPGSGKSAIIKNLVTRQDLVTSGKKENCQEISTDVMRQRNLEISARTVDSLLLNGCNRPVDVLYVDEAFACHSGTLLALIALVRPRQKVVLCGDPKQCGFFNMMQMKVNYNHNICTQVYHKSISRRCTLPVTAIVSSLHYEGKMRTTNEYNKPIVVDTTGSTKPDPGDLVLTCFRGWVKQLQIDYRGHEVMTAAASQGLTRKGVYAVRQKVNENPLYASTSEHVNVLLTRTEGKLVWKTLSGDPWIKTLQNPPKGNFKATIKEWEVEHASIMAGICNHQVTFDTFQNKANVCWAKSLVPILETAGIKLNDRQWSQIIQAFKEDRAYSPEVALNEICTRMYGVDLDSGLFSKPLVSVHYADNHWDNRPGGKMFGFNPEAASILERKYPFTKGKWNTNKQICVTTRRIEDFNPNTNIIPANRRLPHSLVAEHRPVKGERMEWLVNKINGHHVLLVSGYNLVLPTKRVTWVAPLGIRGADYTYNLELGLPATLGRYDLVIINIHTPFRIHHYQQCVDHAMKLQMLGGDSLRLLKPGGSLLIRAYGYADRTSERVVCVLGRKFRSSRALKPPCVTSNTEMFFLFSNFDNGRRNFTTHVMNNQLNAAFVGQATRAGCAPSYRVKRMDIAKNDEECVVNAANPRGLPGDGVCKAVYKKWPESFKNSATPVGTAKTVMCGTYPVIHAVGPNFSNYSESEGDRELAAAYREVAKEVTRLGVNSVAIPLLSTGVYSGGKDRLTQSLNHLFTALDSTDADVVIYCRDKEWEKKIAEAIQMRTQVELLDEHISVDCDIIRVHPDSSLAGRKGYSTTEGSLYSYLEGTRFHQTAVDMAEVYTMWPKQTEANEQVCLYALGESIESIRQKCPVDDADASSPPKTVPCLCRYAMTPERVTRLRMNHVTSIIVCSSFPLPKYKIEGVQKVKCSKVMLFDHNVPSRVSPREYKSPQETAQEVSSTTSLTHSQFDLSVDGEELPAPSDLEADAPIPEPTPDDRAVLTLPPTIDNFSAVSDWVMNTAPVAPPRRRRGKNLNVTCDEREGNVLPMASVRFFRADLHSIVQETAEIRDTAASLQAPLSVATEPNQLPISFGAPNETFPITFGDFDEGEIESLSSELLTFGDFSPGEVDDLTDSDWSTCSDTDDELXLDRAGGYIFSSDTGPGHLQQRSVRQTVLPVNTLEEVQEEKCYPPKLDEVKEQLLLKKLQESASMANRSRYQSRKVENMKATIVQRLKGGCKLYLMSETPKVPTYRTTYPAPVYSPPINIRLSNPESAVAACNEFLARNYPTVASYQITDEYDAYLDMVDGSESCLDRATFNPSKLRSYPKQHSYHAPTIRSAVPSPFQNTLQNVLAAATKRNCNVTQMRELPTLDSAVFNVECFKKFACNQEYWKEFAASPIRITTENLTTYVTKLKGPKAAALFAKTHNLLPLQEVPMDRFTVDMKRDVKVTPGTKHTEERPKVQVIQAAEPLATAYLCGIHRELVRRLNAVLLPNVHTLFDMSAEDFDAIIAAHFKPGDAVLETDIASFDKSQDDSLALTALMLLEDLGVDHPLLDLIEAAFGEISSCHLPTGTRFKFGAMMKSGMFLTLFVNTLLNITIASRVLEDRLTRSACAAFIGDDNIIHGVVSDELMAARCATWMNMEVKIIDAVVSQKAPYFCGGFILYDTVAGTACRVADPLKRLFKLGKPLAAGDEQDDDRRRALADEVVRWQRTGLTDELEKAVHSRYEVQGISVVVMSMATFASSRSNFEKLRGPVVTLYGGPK
OPG149: Resolvase OPG149 (OPG149, Monkeypox virus, UniProt A0A7H0DNC1)
UniProt A0A7H0DNC1, sequence (whole entry, looked up): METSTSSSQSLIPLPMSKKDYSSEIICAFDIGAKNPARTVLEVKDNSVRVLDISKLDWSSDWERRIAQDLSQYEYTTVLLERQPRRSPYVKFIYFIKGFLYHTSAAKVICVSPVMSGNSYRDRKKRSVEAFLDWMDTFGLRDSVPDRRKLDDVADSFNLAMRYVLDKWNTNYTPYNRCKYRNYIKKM
HLA class I histocompatibility antigen, B alpha chain: HLA class I histocompatibility antigen, B alpha chain (Homo sapiens, UniProt P01889)
UniProt P20782, sequence (whole entry, looked up): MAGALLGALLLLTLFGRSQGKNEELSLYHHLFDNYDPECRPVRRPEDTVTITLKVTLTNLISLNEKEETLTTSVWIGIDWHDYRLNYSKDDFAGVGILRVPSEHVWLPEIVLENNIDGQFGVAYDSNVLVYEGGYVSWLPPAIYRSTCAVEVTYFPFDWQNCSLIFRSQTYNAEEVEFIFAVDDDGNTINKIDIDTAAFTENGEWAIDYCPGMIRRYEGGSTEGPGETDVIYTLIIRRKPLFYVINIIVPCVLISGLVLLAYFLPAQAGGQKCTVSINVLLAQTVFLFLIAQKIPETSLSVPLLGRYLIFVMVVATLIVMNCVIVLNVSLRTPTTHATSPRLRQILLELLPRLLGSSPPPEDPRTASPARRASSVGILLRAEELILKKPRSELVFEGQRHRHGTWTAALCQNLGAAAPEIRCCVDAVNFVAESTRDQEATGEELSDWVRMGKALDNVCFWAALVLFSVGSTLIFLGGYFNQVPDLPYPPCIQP
UniProt P10635, sequence (whole entry, looked up): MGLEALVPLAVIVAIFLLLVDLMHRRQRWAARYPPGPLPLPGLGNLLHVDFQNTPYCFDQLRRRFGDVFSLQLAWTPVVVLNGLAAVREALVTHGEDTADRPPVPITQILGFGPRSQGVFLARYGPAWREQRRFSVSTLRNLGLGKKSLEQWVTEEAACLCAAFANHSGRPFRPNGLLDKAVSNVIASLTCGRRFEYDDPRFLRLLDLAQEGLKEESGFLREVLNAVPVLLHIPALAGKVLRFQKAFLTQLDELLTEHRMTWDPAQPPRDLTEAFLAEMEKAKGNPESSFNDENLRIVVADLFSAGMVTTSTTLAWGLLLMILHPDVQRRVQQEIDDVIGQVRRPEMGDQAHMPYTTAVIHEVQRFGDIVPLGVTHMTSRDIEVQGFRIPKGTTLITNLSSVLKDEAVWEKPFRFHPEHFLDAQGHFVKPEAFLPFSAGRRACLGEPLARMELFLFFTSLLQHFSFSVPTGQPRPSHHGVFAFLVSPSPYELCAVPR
UniProt P02716, sequence (whole entry, looked up): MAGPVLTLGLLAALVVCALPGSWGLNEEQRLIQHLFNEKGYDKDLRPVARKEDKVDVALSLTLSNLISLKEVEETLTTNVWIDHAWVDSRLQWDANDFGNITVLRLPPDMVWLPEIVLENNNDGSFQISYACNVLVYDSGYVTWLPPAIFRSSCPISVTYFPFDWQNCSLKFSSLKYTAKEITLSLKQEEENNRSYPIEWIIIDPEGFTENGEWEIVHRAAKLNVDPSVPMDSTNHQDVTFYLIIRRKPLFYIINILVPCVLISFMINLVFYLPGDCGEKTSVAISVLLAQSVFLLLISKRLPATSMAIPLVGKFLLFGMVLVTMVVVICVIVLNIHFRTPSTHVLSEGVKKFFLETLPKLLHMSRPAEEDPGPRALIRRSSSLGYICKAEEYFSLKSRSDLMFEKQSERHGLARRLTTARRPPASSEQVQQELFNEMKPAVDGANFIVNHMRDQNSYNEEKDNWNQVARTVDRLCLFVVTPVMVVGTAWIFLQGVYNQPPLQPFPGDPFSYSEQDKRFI
UniProt P04756, sequence (whole entry, looked up): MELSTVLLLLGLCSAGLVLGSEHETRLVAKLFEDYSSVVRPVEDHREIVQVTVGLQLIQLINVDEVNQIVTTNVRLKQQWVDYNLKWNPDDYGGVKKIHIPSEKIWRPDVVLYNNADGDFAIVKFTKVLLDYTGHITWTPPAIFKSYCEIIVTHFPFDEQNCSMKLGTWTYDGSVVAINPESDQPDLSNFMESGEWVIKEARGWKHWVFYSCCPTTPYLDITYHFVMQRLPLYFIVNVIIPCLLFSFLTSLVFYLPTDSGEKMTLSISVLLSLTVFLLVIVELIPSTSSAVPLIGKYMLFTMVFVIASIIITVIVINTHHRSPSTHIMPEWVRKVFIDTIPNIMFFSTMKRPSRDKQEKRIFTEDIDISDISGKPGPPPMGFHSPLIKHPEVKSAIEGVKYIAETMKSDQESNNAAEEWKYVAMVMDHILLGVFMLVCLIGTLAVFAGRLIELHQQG
UniProt Q81Y92, sequence (whole entry, looked up): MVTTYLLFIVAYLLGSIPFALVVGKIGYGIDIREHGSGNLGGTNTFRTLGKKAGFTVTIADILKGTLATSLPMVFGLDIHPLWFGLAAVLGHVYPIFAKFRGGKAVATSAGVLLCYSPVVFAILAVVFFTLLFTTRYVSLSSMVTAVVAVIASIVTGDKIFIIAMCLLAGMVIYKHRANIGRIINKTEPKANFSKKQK

COc1cc2c3cc1Oc1cc(ccc1O)C[C@@H]1c4c(cc(OC)c(O)c4Oc4ccc(cc4)C[C@@H]3N(C)CC2)CC[N+]1(C)C  IC50 (Chrnd/Chrna1/Chrne (Mus musculus, UniProt P02716+P04756+P20782); endplate current peak height, inhibitor, two-electrode voltage clamp; mouse hemidiaphragm; -80 mV, paraoxon treated, together with: alpha-bungarotoxin 5 µg i.v. pretreatment): 109 nM
CC(C)CNC(=O)N[C@H]1[C@H]([C@H](O)[C@H](O)CO)OC(C(=O)O)=C[C@@H]1O  IC50 (nanI; enzyme activity, inhibitor): > 500000 nM
CCC(C(=O)Nc1ccccc1C)n1cccc2nc(SCc3ccc(OC)cc3)nc1-2 (stereo not shown)  IC50 (Replicase polyprotein 1ab, papain-like protease (rep, Severe acute respiratory syndrome-related coronavirus, UniProt P0C6X7); enzyme activity): 2500 ± 170 nM
CCCCCCN[C@H]1[C@H]([C@H](O)[C@H](O)CO)OC(C(=O)O)=C[C@@H]1O  IC50 (nanI; enzyme activity, inhibitor): > 500000 nM
CC[C@H](C)[C@H](NC(=O)[C@H](CC(=O)O)NC(=O)[C@H](CCCCN)NC(=O)[C@H](CC(C)C)NC(=O)[C@H](CC(N)=O)NC(=O)[C@@H](NC(=O)[C@H](Cc1ccc(O)cc1)NC(=O)[C@H](CO)NC(=O)[C@H](CCC(N)=O)NC(=O)[C@H](CCC(=O)O)NC(=O)[C@H](CC(C)C)NC(=O)[C@H](CCCCN)NC(=O)[C@H](CCCCN)NC(=O)[C@@H](NC(=O)[C@H](C)NC(=O)[C@H](CCC(=O)O)NC(=O)[C@H](CCC(=O)O)NC(=O)[C@H](CC(C)C)NC(=O)[C@H](CCCCN)NC(=O)[C@H](CCCCN)NC(=O)[C@H](CCSC)NC(=O)[C@H](CCC(=O)O)NC(=O)[C@H](CC(=O)O)NC(=O)[C@H](CCC(N)=O)NC(=O)[C@H](CC(C)C)NC(=O)[C@H](CC(=O)O)NC(=O)[C@H](CC(C)C)NC(=O)[C@H](Cc1ccccc1)NC(=O)[C@@H](NC(=O)[C@@H](NC(=O)[C@H](CC(N)=O)NC(=O)[C@@H](NC(=O)[C@H](Cc1ccc(O)cc1)NC(=O)[C@H](CC(=O)O)NC(=O)[C@H](CC(C)C)NC(=O)[C@@H](N)CO)[C@@H](C)CC)C(C)C)[C@@H](C)O)[C@@H](C)CC)[C@@H](C)CC)C(=O)O  IC50 (Spike glycoprotein (S, Human coronavirus 229E, UniProt P15423)): 300 ± 50 nM
CCC(C(=O)Nc1cc(NC2CCNCC2)ccc1C)n1cc(Br)cc2nc(SCc3ccc(F)cc3)nc1-2 (stereo not shown)  IC50 (Replicase polyprotein 1ab, papain-like protease (rep, Middle East respiratory syndrome-related coronavirus, UniProt K9N7C7); enzyme activity, inhibitor): > 100000 nM
Cn1cnc(Cn2c(=O)[nH]/c(=N\c3cc4cn(C)nc4cc3Cl)n(Cc3cc(F)c(F)cc3F)c2=O)n1  IC50 (Cytochrome P450 2D6 (CYP2D6, Homo sapiens, UniProt P10635); inhibitor; human liver microsomes; 30 min preincubation, preincubation with NADPH, together with: dextromethorphan 10 µM): > 100000 nM
O=C(CCCCCCCCCCOc1ccccc1)CP(=O)(O)O  IC50 (Glycerol-3-phosphate acyltransferase 3 (plsY3, Bacillus anthracis, UniProt Q81Y92); inhibitor): 200000 nM
Cn1cnc(Cn2c(=O)[nH]/c(=N\c3cc4cn(C)nc4cc3Cl)n(Cc3cc(F)c(F)cc3F)c2=O)n1  patients with adverse event (human, severe renal impairment; oral, 375 mg, treatment-related dry mouth, Mild severity): 0%
CCC(C(=O)Nc1cc(NC2CCOCC2)ccc1C)n1cc(Cl)cc2nc(SCc3ccc(F)cc3)nc1-2 (stereo not shown)  IC50 (Replicase polyprotein 1ab, papain-like protease (rep, Severe acute respiratory syndrome-related coronavirus, UniProt P0C6X7); enzyme activity): 350 ± 33 nM
CC[C@H](C)[C@H](NC(=O)[C@H](CC(=O)O)NC(=O)[C@@H](N)C(C)C)C(=O)N[C@@H](CC(N)=O)C(=O)N[C@@H](CCCNC(=N)N)C(=O)N[C@@H](CC(N)=O)C(=O)N[C@@H](CC(N)=O)C(=O)N[C@@H](CCCCN)C(=O)N[C@@H](Cc1ccccc1)C(=O)O  IC50 (HLA class I histocompatibility antigen, A alpha chain, allele A*24:02 (Homo sapiens, UniProt P04439); biochemical): > 10000 nM
Nc1ncnc2c([C@@H]3N[C@H](CO)[C@@H](O)[C@H]3O)c[nH]c12  inhibition (Severe acute respiratory syndrome coronavirus; viral replication, inhibitor; Vero 76; 0.9 µM): 0%
O=C(O)c1cccc(-n2cccc2/C=N/O)c1  IC50 (Replicase polyprotein 1ab, nsp13 helicase (rep, Severe acute respiratory syndrome coronavirus 2, UniProt P0DTD1); helicase ATPase activity, inhibitor, Kinase-Glo luminescence): > 150000 nM
C=CS(=O)(=O)CCC(=O)Nc1cc(OC)c2ncccc2c1  IC50 (Polyprotein P1234 nsP2 protease domain; protease activity, inhibitor, FRET; 90 min, 30 min preincubation): 8400 ± 300 nM
C=C(C)[C@@H]1CCC(C)=C[C@H]1c1c(O)cc(CCCCC)cc1O  IC50 (Sodium channel protein type 10 subunit alpha (Scn10a, Mus musculus, UniProt Q6QIY3); ion current, inhibitor, patch clamp): ~2000 nM
oseltamivir carboxylate  IC50 (Neuraminidase (Influenza A virus, UniProt C7FH46); enzyme activity, inhibitor; A(H1N1)pdm09; mean over viruses): 0.55 ± 0.18 nM
C=CS(=O)(=O)c1ccc(C#N)c(C(F)(F)F)c1  IC50 (Polyprotein P1234 nsP2 protease domain; protease activity, inhibitor, FRET; 90 min, 30 min preincubation): 12000 ± 2000 nM
CCCC(C(=O)Nc1cc(NC2CNC2)ccc1C)n1cccc2nc(SCc3ccc(F)cc3)nc1-2 (stereo not shown)  IC50 (Replicase polyprotein 1ab, papain-like protease (rep, Middle East respiratory syndrome-related coronavirus, UniProt K9N7C7); enzyme activity, inhibitor): > 100000 nM
O=C1Cc2cc(-c3ccco3)ccc2C(=O)N1O  IC50 (OPG149): 87 nM
C=CC(=O)N1CCC2(CC1)CC(C(=O)O)CO2 (stereo not shown)  IC50 (Polyprotein P1234 nsP2 protease domain; protease activity, inhibitor, FRET; 90 min, 30 min preincubation): 41000 ± 24000 nM
CCC(C(=O)Nc1cc(NC2CCOC2)ccc1C)n1cc(Cl)cc2nc(SCc3ccc(F)cc3)nc1-2 (stereo not shown)  IC50 (Replicase polyprotein 1ab, papain-like protease (rep, Severe acute respiratory syndrome-related coronavirus, UniProt P0C6X7); enzyme activity): 174 ± 29 nM
CCC(CC)[C@H](NC(C)=O)[C@@H]1[C@H](O)[C@@H](C(=O)O)C[C@H]1N=C(N)N  IC50 (neuraminidase (Influenza A virus, UniProt C6ELZ0); human reference strains; mean): 0.26 ± 0.01 nM
CSCC[C@H](NC(=O)[C@@H](NC(=O)[C@@H](NC(=O)[C@H](C)NC(=O)[C@H](Cc1ccc(O)cc1)NC(=O)[C@H](Cc1c[nH]cn1)NC(=O)[C@H](CCCNC(=N)N)NC(=O)[C@@H]1CCCN1C(=O)[C@@H](N)Cc1c[nH]cn1)[C@@H](C)O)C(C)C)C(=O)O  IC50 (HLA class I histocompatibility antigen, B alpha chain; biochemical): 0.87 nM
CCC(C(=O)Nc1cc(NC2CCNC2)ccc1C)n1cc(Cl)cc2nc(SCc3ccc(F)cc3)nc1-2 (stereo not shown)  IC50 (Replicase polyprotein 1ab, papain-like protease (rep, Middle East respiratory syndrome-related coronavirus, UniProt K9N7C7); enzyme activity, inhibitor): > 100000 nM
CC[C@H](C)[C@H](NC(=O)[C@H](CC(C)C)NC(=O)[C@H](Cc1c[nH]c2ccccc12)NC(=O)[C@H](CCC(N)=O)NC(=O)[C@@H](NC(=O)[C@H](Cc1ccccc1)NC(=O)[C@H](C)NC(=O)[C@H](CCCCNC(=O)COCCOCCNC(=O)COCCOCCNC(=O)CC[C@H](NC(=O)CCCCCCCCCCCCCCCCCCC(=O)O)C(=O)O)NC(=O)[C@H](CCC(N)=O)NC(=O)[C@H](C)NC(=O)[C@@H](NC(=O)[C@H](CCCCN)NC(=O)[C@H](CC(=O)O)NC(=O)[C@H](CC(C)C)NC(=O)C(C)(C)NC(=O)[C@@H](NC(=O)[C@H](CO)NC(=O)[C@H](Cc1ccc(O)cc1)NC(=O)[C@H](CC(=O)O)NC(=O)[C@H](CO)NC(=O)[C@@H](NC(=O)[C@H](Cc1ccccc1)NC(=O)[C@@H](NC(=O)CNC(=O)[C@H](CCC(=O)O)NC(=O)C(C)(C)NC(=O)[C@@H](N)Cc1ccc(O)cc1)[C@@H](C)O)[C@@H](C)O)[C@@H](C)CC)[C@@H](C)CC)C(C)C)C(=O)N[C@@H](C)C(=O)NCC(=O)NCC(=O)N1CCC[C@H]1C(=O)N[C@@H](CO)C(=O)N[C@@H](CO)C(=O)NCC(=O)N[C@@H](C)C(=O)N1CCC[C@H]1C(=O)N1CCC[C@H]1C(=O)N1CCC[C@H]1C(=O)N[C@@H](CO)C(N)=O  subjects with decreased appetite (healthy subjects; all MAD doses): 57.1%
CCCC(C(=O)Nc1cc(NC2CCNCC2)ccc1C)n1cccc2nc(SCc3ccc(F)cc3)nc1-2 (stereo not shown)  IC50 (Replicase polyprotein 1ab, papain-like protease (rep, Severe acute respiratory syndrome-related coronavirus, UniProt P0C6X7); enzyme activity): 968 ± 189 nM
C=CC(=O)N1CCC(C2CC2)C1C(=O)O (stereo not shown)  IC50 (Polyprotein P1234 nsP2 protease domain; protease activity, inhibitor, FRET; 90 min, 30 min preincubation): > 200000 nM
CC[C@H](C)[C@H](NC(=O)[C@H](CC(N)=O)NC(=O)[C@H](CC(N)=O)NC(=O)[C@H](Cc1ccccc1)NC(=O)[C@@H]1CCCN1C(=O)[C@@H](N)CCCCN)C(=O)N[C@@H](CC(C)C)C(=O)N[C@@H](CC(=O)O)C(=O)N[C@@H](CC(C)C)C(=O)O  IC50 (HLA class I histocompatibility antigen, B alpha chain; biochemical): 362 nM
Cc1ccc(NC(=O)c2c(Nc3ccccc3)[nH]c(=O)n(O)c2=O)cc1  IC50 (OPG149): 950 nM
CC(C)C[C@H](NC(=O)[C@H](CO)NC(=O)CNC(=O)[C@H](CCCCN)NC(=O)[C@@H](NC(=O)[C@H](CC(N)=O)NC(=O)[C@H](CC(N)=O)NC(=O)[C@H](C)NC(=O)[C@@H](N)CCCNC(=N)N)[C@@H](C)O)C(=O)O  IC50 (HLA class I histocompatibility antigen, B alpha chain; binding, competitor): 2090 nM
CC(C)[C@H](NC(=O)[C@@H](NC(=O)[C@H](CC(=O)O)NC(=O)[C@H](CO)NC(=O)[C@@H](N)CCC(N)=O)[C@@H](C)O)C(=O)N[C@@H](Cc1ccccc1)C(=O)N[C@@H](CC(=O)O)C(=O)N[C@@H](Cc1ccc(O)cc1)C(=O)N[C@@H](Cc1ccc(O)cc1)C(=O)O  IC50 (HLA class I histocompatibility antigen, A alpha chain, allele A*30:02 (Homo sapiens, UniProt P04439); biochemical): 322 nM
